{"data": "Results gathered from unrelated publications", "note": "A part holds a random share of what one study measured."}
{"data": "Set 1", "target": "Interferon regulatory factor 5, full length, phosphomimetic (IRF5, Homo sapiens, UniProt Q13568-2, residues 1-514, K96S/S451D/S453D/S456D/S462D)", "method": "protein-binding microarray", "form": "double-stranded DNA, one strand shown", "matrix": "in vitro", "tested at": "250 nM", "setting": "60-bp whole probe", "with": "salmon DNA 0.4 mg/ml", "reference": "random background probes", "reading": "higher = stronger binding", "shared flanks, not repeated": "GCCTAGCAC … GTCTTGATTCGCTTGACGCTGCTG"}
{"Sequence": "TCATTTGTATTTTTGATACTGTGCTAG", "log fluorescence": "1.21 z-score"}
{"Sequence": "TCAGATTTCAGTTTCGATTAGTGCTAG", "log fluorescence": "10.4 z-score"}
{"Sequence": "TTAGGACTGGGCACTGGGTTAGTGCTA", "log fluorescence": "-0.655 z-score"}
{"Sequence": "TAAGGTATCCTTCTCCTTTAGTGCTAG", "log fluorescence": "0.407 z-score"}
{"Sequence": "GACGACCTGGGGTTTCGAGACGTGCTA", "log fluorescence": "0.777 z-score"}
{"Sequence": "AGAAATTTCTTTCTAATTCAGTGCTAG", "log fluorescence": "2.92 z-score"}
{"Sequence": "TTAAAACTGAGTATCGATTAGTGCTAG", "log fluorescence": "7.27 z-score"}
{"Sequence": "GCTAGTATGTTCCTTATTTAAGTGCTA", "log fluorescence": "0.325 z-score"}
{"Sequence": "TTAGGTTTGGGGTTTCGGTTAGTGCTA", "log fluorescence": "5.99 z-score"}
{"Sequence": "TCAACTGTCTGTTTCCTACTGTGCTAG", "log fluorescence": "0.698 z-score"}
{"Sequence": "TCAGCTTTCCTTCATGCACTGTGCTAG", "log fluorescence": "0.772 z-score"}
{"Sequence": "TCAATTTTTGCTTACGAACTGTGCTAG", "log fluorescence": "1.2 z-score"}
{"Sequence": "GGCCAAACAGTATTAAACTCGTGCTAG", "log fluorescence": "-0.223 z-score"}
{"Sequence": "GACGGTCTCCTTATCCTGATGTGCTAG", "log fluorescence": "-0.0543 z-score"}
{"Sequence": "GACGGTTTCGGTTTCGGCACGTGCTAG", "log fluorescence": "10.6 z-score"}
{"data": "Set 2", "target": "Histone acetyltransferase KAT6A, both winged helices, GST fusion (KAT6A, Homo sapiens, UniProt Q92794, residues 1-181)", "method": "protein binding microarray", "form": "double-stranded DNA, one strand shown", "matrix": "in vitro", "tested at": "not given", "setting": "8-mer, flanks averaged, mean of 2 arrays, mostly near background", "reference": "not given", "reading": "higher = stronger binding", "Residues (chain)": "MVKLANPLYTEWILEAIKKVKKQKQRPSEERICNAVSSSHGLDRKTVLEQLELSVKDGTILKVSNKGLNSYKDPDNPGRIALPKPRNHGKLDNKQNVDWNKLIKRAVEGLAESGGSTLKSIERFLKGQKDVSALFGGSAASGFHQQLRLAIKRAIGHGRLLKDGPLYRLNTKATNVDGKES"}
{"Sequence": "AAGCGTGA", "E-score": 0.131}
{"Sequence": "CAACCGCG", "E-score": 0.302}
{"Sequence": "AGCTTTGC", "E-score": -0.138}
{"Sequence": "TAACACAA", "E-score": 0.0284}
{"Sequence": "AGTGTGTC", "E-score": -0.103}
{"Sequence": "ACGTGAAG", "E-score": 0.0251}
{"Sequence": "ATAGTCAT", "E-score": -0.152}
{"Sequence": "GGACGGTA", "E-score": 0.24}
{"Sequence": "GCTTTTGA", "E-score": 0.0602}
{"Sequence": "CTCTATTA", "E-score": -0.287}
{"data": "Set 3", "target": "Centromere-binding protein 1, full length, His-tagged (CBF1, Saccharomyces cerevisiae, UniProt P17106, residues 1-351)", "method": "competition protein-binding microarray", "form": "double-stranded DNA, one strand shown", "matrix": "in vitro", "tested at": "2 µM", "setting": "whole 60-bp probe, lowest competitor level", "with": "Pho4 competitor, 0.05 µM", "reading": "higher = stronger binding", "shared flanks, not repeated": "… GTCTTGATTCGCTTGACGCTGCTG", "UniProt P17106, sequence (whole entry, looked up)": "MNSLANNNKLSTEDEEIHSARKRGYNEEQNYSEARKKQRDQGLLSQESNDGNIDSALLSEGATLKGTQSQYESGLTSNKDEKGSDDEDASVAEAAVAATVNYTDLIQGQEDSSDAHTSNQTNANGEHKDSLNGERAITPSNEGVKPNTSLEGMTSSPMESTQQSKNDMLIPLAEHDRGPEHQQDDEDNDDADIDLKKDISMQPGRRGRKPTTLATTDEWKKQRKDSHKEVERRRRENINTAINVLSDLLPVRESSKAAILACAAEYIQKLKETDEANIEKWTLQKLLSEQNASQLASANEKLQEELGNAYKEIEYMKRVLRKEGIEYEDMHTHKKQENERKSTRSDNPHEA"}
{"Sequence": "AAATTACTAAGTTGGACGGTGGGTGACGCCGTATGA", "fluorescence intensity": "64 a.u."}
{"Sequence": "TTGTAAGATTCTACTCCCGTGAAGATCCCAATCGCT", "fluorescence intensity": "64.2 a.u."}
{"Sequence": "CATACCCAACCTTGATTTGTGGGTGAAGATATTTGT", "fluorescence intensity": "72.8 a.u."}
{"Sequence": "CCAAGCCTGTAAATCGGTGTGACGGACACCAGAATA", "fluorescence intensity": "66.5 a.u."}
{"Sequence": "CGTCCTAGTGATTGGGAGGTGGGTGCCATGAGGAAG", "fluorescence intensity": "85.1 a.u."}
{"Sequence": "TAGAGCTTGCCTCGTCAGGTGATGACAAGTTGTAAA", "fluorescence intensity": "888 a.u."}
{"Sequence": "CGGGGTTAAGTTTGCGTGGTGGGTGGCTTGCAGCAG", "fluorescence intensity": "64.9 a.u."}
{"Sequence": "CCGCCGGTCTTTTCTCTCGTGGTGAGTGGTACTTTG", "fluorescence intensity": "76 a.u."}
{"Sequence": "CTATTTTTCCTCTGGCGCGTGAATAGCCCGCAGAGA", "fluorescence intensity": "80.5 a.u."}
{"Sequence": "CTGTAGTAACAAAAACATGTGGGATGCCAAATTGTA", "fluorescence intensity": "107 a.u."}
{"Sequence": "CTAACGAAGGTTTGGCCAGTGGGTGACAAGCCAAGT", "fluorescence intensity": "64.7 a.u."}
{"Sequence": "CTATTTTTATGAATTCCGCGGGATTCCTCTATATCT", "fluorescence intensity": "77.2 a.u."}
{"Sequence": "CATACCCAACCTTGCACAGTGGGTGAAGATATTTGT", "fluorescence intensity": "71.7 a.u."}
{"Sequence": "CTAACGAAGGTTTGGAACGTGGGTGACAAGCCAAGT", "fluorescence intensity": "81.1 a.u."}
{"Sequence": "TAATGCGCTTGCATGTATGTGCGTACATGTATGTGT", "fluorescence intensity": "82.5 a.u."}
{"Sequence": "CTTCTGTAAATTTGGGCAGTGGGTGGACGCGCCCCG", "fluorescence intensity": "90.7 a.u."}
{"Sequence": "AGGCTCTTTCACTTCAGCATGACAGTAGTCCACTCT", "fluorescence intensity": "71.7 a.u."}
{"data": "Further values, each from its own experiment"}
{"Substance": "PhoQ, residues 284 288 289 292 302 303 SLSLLA", "target": "PhoP, residues 12 14 15 18 19 LQHIR (Escherichia coli, UniProt P23836)", "assay": "Sort-seq, refers to: YFP reporter", "test system": "E. coli", "conditions": "PhoQ-PhoP variant library, with: 10 µM Mg2+", "how to read": "reference: high Mg2+ state, higher = stronger signaling", "measurement": "fold induction", "value": 11.3}
{"note": "Repeated from above (set 2):"}
{"Sequence": "ATAGTCAT", "E-score": -0.152}
{"Sequence": "GGACGGTA", "E-score": 0.24}
{"Sequence": "GCTTTTGA", "E-score": 0.0602}
{"Sequence": "CTCTATTA", "E-score": -0.287}
